Measurements of several laboratories.
Each line is one published result; not all experiments were run side by side. Numbers after ± are the reported error.
Cell line: HUVEC

| SMILES | read-out | mode | method | time | together with | IC50 [µM] |
| --- | --- | --- | --- | --- | --- | --- |
| COc1ccc([C@@H]2COc3cc(O)ccc3C2)c(OC)c1 | cell growth or viability | – | MTT | 72 h | – | > 50 |
| COc1ccc(Cn2cc(COc3c(OC)ccc4cc5[n+](cc34)CCc3cc4c(cc3-5)OCO4)nn2)cc1 | cell growth or viability | – | MTT | – | – | 71.2 |
| O=C(Nc1ccc([N+](=O)[O-])cc1Cl)c1cc(F)ccc1O | cell growth or viability | – | CCK-8 | 24 h | – | 18.7 |
| Cc1[nH]nc2c1N=C(c1ccccc1Cl)c1cnc(N3CCOCC3)cc1N2 | cell growth or viability | – | – | 72 h | – | 0.0094 |
| [NH2][Pt]1([NH2])([Cl])([O]C(=O)C(Cl)Cl)[O]C(=O)C2(CC(=O)C2)C(=O)[O]1 | cell growth or viability | – | MTT | – | – | 59.1 |
| COc1ccc(CC[C@H]2OC(=O)[C@@H]3CCCCN3C(=O)C(=O)C(C)(C)COC(=O)C=CCCN(C)C(=O)[C@H](CC(C)C)N(C)C(=O)[C@H]3CCCN3C(=O)[C@H](Cc3ccccc3)N(C)C(=O)[C@H](Cc3ccccc3)NC(=O)CCC(=O)Nc3cccc2c3)cc1OC | thymidine uptake | – | – | – | – | 0.366 |
| COc1ccc2cc3[n+](cc2c1OCc1cn(Cc2ccc([N+](=O)[O-])cc2)nn1)CCc1cc2c(cc1-3)OCO2 | cell growth or viability | – | MTT | – | – | 36.5 |
| COc1ccc(CC[C@H]2OC(=O)[C@@H]3CCCCN3C(=O)C(=O)C(C)(C)COC(=O)/C=C/CCN(C)C(=O)[C@H](CC(C)C)N(C)C(=O)[C@@H]3CCCN3C(=O)[C@H](Cc3ccccc3)N(C)C(=O)[C@H](c3ccccc3)NC(=O)CCC(=O)Nc3cccc2c3)cc1OC | thymidine uptake | inhibitor | – | – | [3H]-thymidine | 0.005 |
| COc1ccc(CS(=O)(=O)c2ccc3ccccc3c2)cc1NCC(=O)O | cell growth or viability | – | MTS | 48 h | – | 3.81 |
| COc1ccc2cc3[n+](cc2c1OCc1cn(Cc2cccc(Cl)c2)nn1)CCc1cc2c(cc1-3)OCO2 | cell growth or viability | – | MTT | – | – | 48.2 |
| COc1cc2c(cc1OCCCOc1no[n+]([O-])c1S(=O)(=O)c1ccccc1)CCC1C2CCC2(C)C(O)CCC12 (stereo not drawn) | cell growth or viability | – | MTT | 48 h | – | 0.725 |
| COc1cc2c(cc1-c1coc3c(CC=C(C)C)c(OC)c(OC)cc3c1=O)OCO2 | cell growth or viability | – | MTT | 72 h | – | > 50 |
| COc1ccc2cc3[n+](cc2c1OCc1cn(Cc2ccc(C(C)(C)C)cc2)nn1)CCc1cc2c(cc1-3)OCO2 | cell growth or viability | – | MTT | – | – | 25.5 |
| Clc1ccc2ccc3[n+](c2c1)[Ir-3]12([c]4ccccc4-3)([c]3ccccc3-c3ccc4ccc(Cl)cc4[n+]31)[n+]1ccccc1-c1cccc[n+]12.F[P-](F)(F)(F)(F)F | cell growth | – | MTT | 72 h | – | 2.2 ± 0.19 |
| COc1ccc2cc3[n+](cc2c1OCc1cn(Cc2cccc(Br)c2)nn1)CCc1cc2c(cc1-3)OCO2 | cell growth or viability | – | MTT | – | – | 25.8 |
| Oc1ccc2c(c1)OCc1c-2oc2cc3c(cc12)OCO3 | cell growth or viability | – | MTT | 72 h | – | > 50 |
| CC(=O)Nc1ccc(OC(=O)CCC(=O)[O][Pt-2]23([O]C(=O)CCC(=O)Oc4ccc(NC(C)=O)cc4)([NH2+][C@@H]4CCCC[C@H]4[NH2+]2)[O]C(=O)C(=O)[O]3)cc1 | cell growth or viability | – | MTT | 48 h | – | > 100 |
| COC(=O)CNc1cc(C[S+]([O-])c2ccc3cc(Br)ccc3c2)ccc1OC (stereo not drawn) | cell growth or viability | – | MTS | 48 h | – | 28.4 |

For quick reference, copied from above:
| SMILES | read-out | mode | method | time | together with | IC50 [µM] |
| --- | --- | --- | --- | --- | --- | --- |
| COc1ccc(CS(=O)(=O)c2ccc3ccccc3c2)cc1NCC(=O)O | cell growth or viability | – | MTS | 48 h | – | 3.81 |
| COc1ccc2cc3[n+](cc2c1OCc1cn(Cc2cccc(Cl)c2)nn1)CCc1cc2c(cc1-3)OCO2 | cell growth or viability | – | MTT | – | – | 48.2 |
| COc1cc2c(cc1OCCCOc1no[n+]([O-])c1S(=O)(=O)c1ccccc1)CCC1C2CCC2(C)C(O)CCC12 (stereo not drawn) | cell growth or viability | – | MTT | 48 h | – | 0.725 |
